Results gathered from unrelated publications.
Parts stem from different laboratories: compare values within a part only.

Study 1
Species: human
Medium: microsomes or S9
Concentration: 2 µM
Time: 0.5 h
| SMILES | remaining compound [%] |
| --- | --- |
| O=C1NCCN1C(=O)N1CCCC(Oc2cccnn2)C1 (stereo not shown) | 87.3 |
| O=C(Cc1csc(COc2ccccc2)n1)NCCc1c[nH]c2ccccc12 | 13.4 |
| CC1=CC(C)(C)Oc2cc(C)c(C(=O)N=C(N)N)cc21 | 69.8 |
| CCOc1cc(=O)n2c(c1C(=O)NCCCN1CCCc3ccccc31)CCCCC2 | 0.17 |
| CC(=O)Nc1ccc(Nc2cc(C)nc(-n3nc(C)cc3C)n2)cc1 | 59 |

Study 2
Cell line: A-375
Concentration: 100 µM
Time: 36 h
| Compound | viability |
| --- | --- |
| Cc1cn(-c2cc(NC(=O)c3ccc(C)c(Nc4nccc(-c5cnccn5)n4)c3)cc(C(F)(F)F)c2)cn1 | 3.24% |
| COC(=O)[C@@H]1CC2=CC(=O)CC[C@]2(C)[C@@]23O[C@@H]2C[C@@]2(C)[C@@H](CC[C@@]24CCC(=O)O4)[C@H]13 | 102% |
| COc1ccc([C@@H]2OC[C@H]3[C@@H]2CO[C@@H]3c2ccc(O[C@@H]3O[C@H](CO)[C@@H](O)[C@H](O)[C@H]3O)c(OC)c2)cc1OC | 103% |

Study 3
SMILES: CC(C)n1cnc(-c2ccc(F)cc2)c1-c1ncc(C(=O)Nc2ccc(N3CCN(C)CC3)cc2)[nH]1
| assay | test system | setting | patients with adverse event |
| --- | --- | --- | --- |
| measured: abnormal liver function test, grade 3 | idiopathic pulmonary fibrosis patients | dose not given, all compound arms pooled | 0% |
| Phase 2a trial, measured: blood lactate dehydrogenase increased | human, idiopathic pulmonary fibrosis | 60 mg once daily, grade 4 | 0% |
| Phase 2a trial, measured: respiratory, thoracic, mediastinal disorders | human, idiopathic pulmonary fibrosis | 30 mg once daily, grade 4 | 0% |
| Phase 2a trial, measured: blood urea increased | human, idiopathic pulmonary fibrosis | 60 mg once daily, grade 4 | 0% |

Study 4
Target: Rho-associated protein kinase 2 (ROCK2, Homo sapiens, UniProt O75116)
Sequence of UniProt O75116 (whole entry, looked up): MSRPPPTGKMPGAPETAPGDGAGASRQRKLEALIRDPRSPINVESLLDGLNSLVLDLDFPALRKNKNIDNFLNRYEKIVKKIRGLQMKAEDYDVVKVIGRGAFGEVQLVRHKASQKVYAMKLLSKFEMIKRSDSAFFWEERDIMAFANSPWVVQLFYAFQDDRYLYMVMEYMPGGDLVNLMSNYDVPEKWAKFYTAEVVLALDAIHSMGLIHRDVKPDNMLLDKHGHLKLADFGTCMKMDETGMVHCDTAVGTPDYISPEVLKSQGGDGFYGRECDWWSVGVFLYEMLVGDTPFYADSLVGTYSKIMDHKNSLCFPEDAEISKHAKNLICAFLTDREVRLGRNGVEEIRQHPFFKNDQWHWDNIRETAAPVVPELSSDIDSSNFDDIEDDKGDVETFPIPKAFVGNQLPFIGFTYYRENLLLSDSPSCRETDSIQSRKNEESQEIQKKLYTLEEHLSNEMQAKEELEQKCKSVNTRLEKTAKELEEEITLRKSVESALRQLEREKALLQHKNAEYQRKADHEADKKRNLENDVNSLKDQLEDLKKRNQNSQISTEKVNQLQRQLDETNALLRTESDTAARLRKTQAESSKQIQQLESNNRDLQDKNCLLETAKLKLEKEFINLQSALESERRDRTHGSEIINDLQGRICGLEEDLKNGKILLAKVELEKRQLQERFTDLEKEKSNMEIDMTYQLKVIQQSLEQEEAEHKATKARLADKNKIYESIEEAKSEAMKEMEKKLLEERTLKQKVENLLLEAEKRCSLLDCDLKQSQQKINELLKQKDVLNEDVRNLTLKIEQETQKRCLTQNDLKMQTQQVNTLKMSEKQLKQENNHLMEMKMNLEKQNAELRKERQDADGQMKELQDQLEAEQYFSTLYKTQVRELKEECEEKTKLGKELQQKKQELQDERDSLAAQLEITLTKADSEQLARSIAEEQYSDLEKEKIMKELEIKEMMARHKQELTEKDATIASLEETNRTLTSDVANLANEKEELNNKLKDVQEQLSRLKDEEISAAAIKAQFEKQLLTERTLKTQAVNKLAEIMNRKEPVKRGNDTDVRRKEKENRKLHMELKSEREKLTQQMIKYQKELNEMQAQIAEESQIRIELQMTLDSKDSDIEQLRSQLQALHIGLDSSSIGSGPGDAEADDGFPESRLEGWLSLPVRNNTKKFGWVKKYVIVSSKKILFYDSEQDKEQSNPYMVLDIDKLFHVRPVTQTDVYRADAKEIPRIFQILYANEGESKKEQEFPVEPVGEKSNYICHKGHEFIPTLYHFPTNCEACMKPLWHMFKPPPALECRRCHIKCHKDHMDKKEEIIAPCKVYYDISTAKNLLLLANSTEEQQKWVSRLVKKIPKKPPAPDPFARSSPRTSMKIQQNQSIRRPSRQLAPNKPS
Read-out: enzyme activity
Action: inhibitor
Concentration: 0.5 µM
Relative to: control
| SMILES | remaining activity [%] |
| --- | --- |
| Cc1ccc(S(=O)(=O)/C=C/C#N)cc1 | 99.1 |
| Clc1ccc(Nc2nnc(Cc3ccncc3)c3ccccc23)cc1 | 95.4 |
| CC(C)n1cnc2c(Nc3cccc(Cl)c3)nc(NCCO)nc21 | 97.5 |
| O=C1Cc2c([nH]c3ccc(Br)cc23)-c2ccccc2N1 | 84.6 |
| CCCCc1c(-c2ccc(O)cc2)[nH]c2nccnc12 | 97.5 |
| N#C/C(=C(/N)SC1C=CC=CC1)c1cccc(C(O)c2ccncc2)c1 (stereo not shown) | 80.6 |
| CCCNC(=O)Nc1ccc(Oc2ncnc3cc(OC)c(OC)cc23)cc1Cl | 97.7 |
| O=C1c2ccccc2-c2nc3nnnn3nc21 | 81.7 |
| O=c1cc(N2CCOCC2)oc2c(-c3ccccc3)cccc12 | 95.2 |
| CCCCc1c(-c2ccc(OC)cc2)[nH]c2nccnc12 | 97.2 |
| Oc1cccc(-c2nc(N3CCOCC3)c3oc4ncccc4c3n2)c1 | 94.5 |
| CC(C)(C)c1nc2c3cc[nH]c(=O)c3c3cc(F)ccc3c2[nH]1 | 70.7 |
| Nc1nc(Nc2ccc(S(N)(=O)=O)cc2)nn1C(=S)Nc1c(F)cccc1F | 6.22 |
| N#Cc1cnc2cnc(NCc3cccnc3)cc2c1Nc1ccc(F)c(Cl)c1 | 97.1 |
| c1ccc(-c2n[nH]c3c2oc2ccccc23)cc1 | 87.3 |

Study 5
Target: 5-hydroxytryptamine receptor 1B (HTR1B, Homo sapiens, UniProt P28222)
Sequence of UniProt P28222 (whole entry, looked up): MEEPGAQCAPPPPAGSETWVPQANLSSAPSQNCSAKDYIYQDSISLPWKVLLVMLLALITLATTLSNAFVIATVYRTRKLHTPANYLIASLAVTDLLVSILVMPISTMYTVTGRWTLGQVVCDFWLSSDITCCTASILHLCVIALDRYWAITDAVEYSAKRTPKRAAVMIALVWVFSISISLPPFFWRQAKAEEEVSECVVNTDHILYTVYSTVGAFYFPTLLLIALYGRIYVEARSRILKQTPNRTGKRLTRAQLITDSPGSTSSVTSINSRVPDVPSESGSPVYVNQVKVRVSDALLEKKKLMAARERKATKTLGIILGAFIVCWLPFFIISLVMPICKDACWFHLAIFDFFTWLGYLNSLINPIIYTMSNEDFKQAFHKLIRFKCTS
Read-out: ligand displacement
Technique: radioligand
Concentration: 10 µM
| Compound | inhibition [%] |
| --- | --- |
| O=C(NCc1ncc(C(F)(F)F)cc1Cl)c1ccc2c(c1)C1(CCS(=O)(=O)CC1)[C@@H](C1CC1)N2S(=O)(=O)c1ccc(F)cc1 | -2.74 |
| O=C(Nc1cccnn1)N1CCC(=Cc2cccc(Oc3ccc(C(F)(F)F)cn3)c2)CC1 | 24.4 |
| COc1cccc(CNC(=O)c2nc3scc(COCc4ccc(C(=O)O)cc4)c3c(=O)[nH]2)c1 | 15.9 |
| CNC(=O)Nc1ccc2c(c1)C1(CC2)OC(=O)N(CC(=O)N(Cc2ccc(F)cc2)[C@@H](C)C(F)(F)F)C1=O (single isomer, unassigned) | 11.2 |

Excerpt of the above (study 2):
| Compound | viability |
| --- | --- |
| COc1ccc([C@@H]2OC[C@H]3[C@@H]2CO[C@@H]3c2ccc(O[C@@H]3O[C@H](CO)[C@@H](O)[C@H](O)[C@H]3O)c(OC)c2)cc1OC | 103% |
| COC(=O)[C@@H]1CC2=CC(=O)CC[C@]2(C)[C@@]23O[C@@H]2C[C@@]2(C)[C@@H](CC[C@@]24CCC(=O)O4)[C@H]13 | 102% |
| Cc1cn(-c2cc(NC(=O)c3ccc(C)c(Nc4nccc(-c5cnccn5)n4)c3)cc(C(F)(F)F)c2)cn1 | 3.24% |
